Measured values gathered from unrelated publications.
Every numbered part comes from another study and shows a few of its results, in no order. Changes are numbered by the printed parent chain.
UniProt P43403, sequence (whole entry, looked up): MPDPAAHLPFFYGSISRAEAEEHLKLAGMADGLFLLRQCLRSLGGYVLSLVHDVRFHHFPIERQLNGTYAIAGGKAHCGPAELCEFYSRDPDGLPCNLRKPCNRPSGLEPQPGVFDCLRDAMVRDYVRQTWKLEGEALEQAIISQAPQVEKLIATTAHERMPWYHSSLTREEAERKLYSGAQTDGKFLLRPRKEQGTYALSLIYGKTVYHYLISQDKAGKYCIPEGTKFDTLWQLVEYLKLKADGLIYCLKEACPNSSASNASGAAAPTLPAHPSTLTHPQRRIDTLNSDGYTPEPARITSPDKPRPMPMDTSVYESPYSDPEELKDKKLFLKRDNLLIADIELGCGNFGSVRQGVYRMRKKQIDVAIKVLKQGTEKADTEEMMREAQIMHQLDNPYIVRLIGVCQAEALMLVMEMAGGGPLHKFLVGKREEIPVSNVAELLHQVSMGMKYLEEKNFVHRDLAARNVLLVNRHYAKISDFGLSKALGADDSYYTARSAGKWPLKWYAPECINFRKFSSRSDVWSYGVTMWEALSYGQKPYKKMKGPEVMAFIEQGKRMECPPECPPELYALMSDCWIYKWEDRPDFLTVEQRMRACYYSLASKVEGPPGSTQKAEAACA

Series 1
Target: Histone acetyltransferase KAT6A, winged helix 2, GST fusion (KAT6A, Homo sapiens, UniProt Q92794, residues 85-181)
Technique: protein binding microarray
Form: double-stranded DNA, one strand shown
Sample: in vitro
Concentration: not given
Notes: 8-mer, flanks averaged, mean of 2 arrays, mostly near background
Reference: not given
Reading: higher = stronger binding
Construct (chain): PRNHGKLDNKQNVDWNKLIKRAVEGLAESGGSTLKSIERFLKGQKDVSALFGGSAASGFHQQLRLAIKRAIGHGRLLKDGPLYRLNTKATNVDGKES
With `ACATGTAT` the E-score was -0.12.
With `CAGATTTC` the E-score was 0.0471.
`GTCGTTTA` has an E-score of -0.0115.
`TGGCGTAA` gave an E-score of 0.112.
The E-score of `AGAGGTCC` is reported as 0.0489.
For `GTCTTATA`, the E-score was -0.286.
`ATCGGCAG` gave an E-score of 0.191.
With `CCACATAC` the E-score was -0.0946.

Series 2
Target: Interferon regulatory factor 3, full length, phosphomimetic (IRF3, Homo sapiens, UniProt Q14653, residues 1-427, S386D/S396D/S398D/S402D/T404D/S405D)
Technique: protein-binding microarray
Form: double-stranded DNA, one strand shown
Sample: in vitro
Concentration: 2540 nM top
Notes: 60-bp whole probe
Together with: salmon DNA 0.4 mg/ml
Reference: random background probes
Reading: higher = stronger binding
All sequences stand within: GCCTAGCAC … GTCTTGATTCGCTTGACGCTGCTG
Target sequence (chain): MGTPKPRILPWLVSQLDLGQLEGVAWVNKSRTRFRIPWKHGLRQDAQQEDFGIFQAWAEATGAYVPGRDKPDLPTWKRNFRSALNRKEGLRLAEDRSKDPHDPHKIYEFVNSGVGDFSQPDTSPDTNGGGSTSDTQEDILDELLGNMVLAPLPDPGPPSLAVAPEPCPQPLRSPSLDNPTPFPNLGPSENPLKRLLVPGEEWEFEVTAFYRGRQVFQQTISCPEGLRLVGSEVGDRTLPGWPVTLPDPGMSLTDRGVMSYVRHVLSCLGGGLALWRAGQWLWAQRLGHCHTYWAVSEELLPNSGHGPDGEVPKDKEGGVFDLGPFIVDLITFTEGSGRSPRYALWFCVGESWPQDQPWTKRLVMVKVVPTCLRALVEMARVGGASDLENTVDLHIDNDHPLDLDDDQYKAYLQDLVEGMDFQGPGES
Under “fitted relative affinity”, `TTAGGACTGGCTATCGGTTAGTGCTAG` is recorded as -0.55 z-score.
For `TCATTTTTTTTTTTGTAACTGTGCTAG`, “fitted relative affinity” read 1.22 z-score.
`AGAGGCGGGAGGGGGCGGGGGTGCTAG` — result for “fitted relative affinity”: -0.374 z-score.
Under “fitted relative affinity”, `AGACTTTTTTCAGACCTGTCGTGCTAG` is recorded as 0.748 z-score.
`GACGAACTGGGGACTGGAGATGTGCTA` — result for “fitted relative affinity”: -0.461 z-score.
`CCCACCATCTAGTTCTGCTTGTGCTAG` — result for “fitted relative affinity”: 0.464 z-score.
Under “fitted relative affinity”, `GACGATTTTAGTATCGAGACGTGCTAG` is recorded as 1.17 z-score.
Under “fitted relative affinity”, `GACGGACTGGGTTTCGGGGCGTGCTAG` is recorded as 0.438 z-score.

Series 3
Target: CRIPT, C-terminal peptide
Technique: DHFR complementation, deep sequencing
Sample: yeast
Notes: single substitutions, model-inferred values
Reference: wild type
Reading: higher = weaker binding
Starting sequence: ERBIN, PDZ domain 1 (human); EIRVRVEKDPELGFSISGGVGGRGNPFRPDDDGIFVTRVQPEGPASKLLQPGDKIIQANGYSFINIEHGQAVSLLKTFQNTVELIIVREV; partner TKNYKQTSV
For `V90D`, “binding free energy change” read -0.0103 kcal/mol.
`F63I` — result for “binding free energy change”: -0.135 kcal/mol.
`S62W` — result for “binding free energy change”: 0.0218 kcal/mol.
Under “binding free energy change”, `D53I` is recorded as 0.781 kcal/mol.
Under “binding free energy change”, `E1H` is recorded as 0.108 kcal/mol.
For `V90K`, “binding free energy change” read -0.0372 kcal/mol.
For `V87S`, “binding free energy change” read 0.0264 kcal/mol.
Under “binding free energy change”, `P10F` is recorded as -0.428 kcal/mol.

Other studies, line by line
The remaining activity of `Cc1cc(Nc2nc(-c3ccccc3)nc3ccccc23)n[nH]1` is reported as 105% (Tyrosine-protein kinase ZAP-70 (ZAP70, Homo sapiens, UniProt P43403); enzyme activity, inhibitor; 0.5 µM; reference: control).

A few entries again (series 2):
Under “fitted relative affinity”, `GACGGACTGGGTTTCGGGGCGTGCTAG` is recorded as 0.438 z-score.
`AGAGGCGGGAGGGGGCGGGGGTGCTAG` — result for “fitted relative affinity”: -0.374 z-score.
